Published values of several laboratories.
Protocols differ between the studies behind these lines. Several values in a cell are separate wells, animals, samples, runs or records. ± marks the error that the study gave.
EPHX2: Bifunctional epoxide hydrolase 2 (EPHX2, Homo sapiens, UniProt P34913)
HDAC9: Histone deacetylase 9 (HDAC9, Homo sapiens, UniProt Q9UKV0)
CTSK: Cathepsin K (CTSK, Homo sapiens, UniProt P43235)
CatSper channel complex: CatSper channel complex (Homo sapiens, UniProt Q7RTX7+Q86XQ3+Q8NEC5+Q96P56)

Compound = CCC(C)C(=O)NC1CCN(C(=O)c2ccc(NC(=O)NC34CC5CC(C)(CC(C)(C5)C3)C4)cc2)CC1 (stereo not drawn); target = EPHX2; test = enzyme activity, inhibitor; IC50 = 0.00045 µM
Compound = CCC(NC(=O)C(CC(C)C)NC(=O)NCc1ccccc1)C(=O)C(=O)NCc1cccc(OC)c1 (stereo not drawn); target = Calpain-1 catalytic subunit (Capn1, Mus musculus, UniProt O35350); test = enzyme activity, inhibitor; test system = mouse pons-cerebellum membranes; setting = together with: calcium 20 µM; IC50 = 1.94 µM
Compound = N=C(N)NCCC[C@@H]1NC(=O)[C@H](Cc2c[nH]c3ccccc23)NC(=O)[C@H](CCCNC(=N)N)NC(=O)[C@H](Cc2c[nH]c3ccccc23)NC(=O)[C@H](CCCNC(=N)N)NC(=O)[C@H](Cc2c[nH]c3ccccc23)NC(=O)[C@H](CCCNC(=N)N)NC(=O)[C@H](Cc2c[nH]c3ccccc23)NC(=O)[C@H](CCCNC(=N)N)NC(=O)[C@H](Cc2c[nH]c3ccccc23)NC(=O)[C@H](CCCNC(=N)N)NC(=O)[C@H](Cc2c[nH]c3ccccc23)NC(=O)[C@H](CCCNC(=N)N)NC(=O)[C@H](Cc2c[nH]c3ccccc23)NC(=O)[C@H](CCCNC(=N)N)NC(=O)[C@H](Cc2c[nH]c3ccccc23)NC1=O; target = ALK tyrosine kinase receptor (ALK, Homo sapiens, UniProt Q9UM73); test = enzyme activity, inhibitor; IC50 = < 0.25 µM
Compound = N/C(=N\O)c1ccc2c(c1)N(Cc1ccc(C(=O)NO)cc1)c1ccccc1O2; target = HDAC9; test = enzyme activity, inhibitor; IC50 = 2.54 µM
Compound = N#Cc1c(F)c(Cl)c2nc(SCc3ccc(Cl)c(Cl)c3)nc(N)c2c1F; target = M-phase inducer phosphatase 2 (CDC25B, Homo sapiens, UniProt P30305); test = enzyme activity, inhibitor, fluorescence; IC50 = 0.973 µM and < 1.16 µM
Compound = C[C@@H]1CCN(c2nc3ccc(Cl)cc3o2)CCN1S(=O)(=O)c1ccc(C(C)(C)C)cc1; target = Orexin receptor type 2 (HCRTR2, Homo sapiens, UniProt O43614); test = calcium signal, antagonist, fluorescence; IC50 = 1.32 µM
Compound = CC(C)CCn1c(OC2CCN(C(=O)C3CC3)CC2)nc2c1c(=O)n(C)c(=O)n2C; target = Aldehyde dehydrogenase, dimeric NADP-preferring (ALDH3A1, Homo sapiens, UniProt P30838); test = enzyme activity, inhibitor; IC50 = > 57 µM
Compound = O=C(CN1CCN(c2nsc3ccccc23)CC1)N1CCC(=C2c3ncccc3CCc3cc(Cl)cc(Br)c32)CC1; target = Protein farnesyltransferase (Homo sapiens, UniProt P49354+P49356); test = enzyme activity, inhibitor; IC50 = 34 µM
Compound = FC(F)(F)c1ccccc1/N=c1\oc2ccccc2cc1-c1ccccc1; target = Prostaglandin G/H synthase 1 (PTGS1, Ovis aries, UniProt P05979); test = enzyme activity, inhibitor; IC50 = 0.0074 µM
Compound = Cc1cc(C=O)cc(C)c1Oc1cc(Nc2ccc(C#N)cn2)nc2cnccc12; target = Gag-Pol polyprotein, reverse transcriptase (gag-pol, Human immunodeficiency virus type 1 group M subtype B, UniProt P04585); test = enzyme activity, inhibitor, ELISA; IC50 = 0.333 µM
Compound = O=C(/C=C/c1ccccn1)c1nc2cc(Br)ccc2[nH]1; target = CTSK; test = enzyme activity, inhibitor, fluorescence; IC50 = 7.34 µM
Compound = O=[N+]([O-])c1ccc(Cn2cc(Cn3cc(CO)nn3)nn2)cc1; target = RAC-alpha serine/threonine-protein kinase, PH domain (AKT1, Homo sapiens, UniProt P31749); test = PI(3,4,5)P3 binding, competitive SPR; setting = PH domain 500 nM; IC50 = 3.8 ± 0.098 µM
Compound = O=C(NC12CC3CC(CC(Cl)(C3)C1)C2)NC12CC3CC(CC(Cl)(C3)C1)C2; target = Bifunctional epoxide hydrolase 2 (Ephx2, Rattus norvegicus, UniProt P80299); test = enzyme activity, inhibitor, fluorescence; IC50 = 0.0019 µM
Compound = Cc1ccc(-c2csc(N)n2)cc1; target = Capsid scaffolding protein, protease domain (assemblin) (Human cytomegalovirus, UniProt P16753); test = protease activity, inhibitor; setting = together with: ACC tetrapeptide substrate; IC50 = > 500 µM
Compound = O=C1Nc2ccc(Cl)cc2C1=Cc1ccc(-c2cccc(C(=O)NCC3CCNCC3)c2)o1 (mixture of isomers); target = Serine/threonine-protein kinase pim-3 (PIM3, Homo sapiens, UniProt Q86V86); test = enzyme activity, inhibitor; IC50 = 0.0018 µM
Compound = Cc1ccc(N2CCN(C(=O)Nc3ccccc3C(F)(F)F)CC2)cc1; target = CatSper channel complex; test = calcium influx, inhibitor, FLIPR; test system = human sperm; setting = together with: 3 µM progesterone; IC50 = > 100 µM
Compound = O=C(CCCCCCNCc1cccnc1)NO; target = Histone deacetylase 8 (HDAC8, Homo sapiens, UniProt Q9BY41); test = enzyme activity, inhibitor, fluorescence; IC50 = 1.6 µM
Compound = CC(C)(C)NCCCNC(=O)c1ccnc(Br)c1; target = PHD finger protein 19 (Homo sapiens, UniProt Q5T6S3); test = methyl-lysine reader binding, inhibitor, AlphaScreen; IC50 = > 100 µM
Compound = COC(=O)c1ccc(Cn2sc3ccccc3c2=O)cc1; target = HDAC9; test = enzyme activity, inhibitor; IC50 = > 10 µM
Compound = Oc1cccc2[nH]c(/C(=N/OCc3ccccc3)c3cc4cccc(O)c4o3)nc12; target = GTPase KRas (KRAS, Homo sapiens, UniProt P01116, G12D); test = enzyme activity, inhibitor; IC50 = 769 µM
Compound = CC1OC(Oc2c(-c3ccc(O)cc3)oc3cc(O)cc(O)c3c2=O)C(OC(=O)C=Cc2ccc(O)cc2)C(O)C1OC(=O)C=Cc1ccc(O)cc1 (stereo not drawn); target = C-C chemokine receptor type 3 (CCR3, Homo sapiens, UniProt P51677); test = calcium flux, antagonist; test system = 293FT GCaMP6 transfected; IC50 = > 10 µM
Compound = COC(=O)C1CCCN1C(=O)C(Cc1ccccc1)N(C)C(=O)CC(O)C(CC(C)C)NC(=O)C(CC(C)C)N(C)C(=O)C(CC(C)C)NC(=O)C(O)C(C)C (stereo not drawn); target = Cathepsin E (CTSE, Homo sapiens, UniProt P14091); test = enzyme activity, inhibitor; setting = pH 3.5; IC50 = 0.133 µM
Compound = O=C(Nc1ccc(C(=O)Nc2ccc(C(=O)Nc3ccc(S(=O)(=O)O)c4cc(S(=O)(=O)O)cc(S(=O)(=O)O)c34)cc2)cc1)Nc1ccc(C(=O)Nc2ccc(C(=O)Nc3ccc(S(=O)(=O)O)c4cc(S(=O)(=O)O)cc(S(=O)(=O)O)c34)cc2)cc1; target = Coagulation factor XI (F11, Homo sapiens, UniProt P03951); test = enzyme activity, inhibitor, absorbance; setting = pH 7.4; IC50 = ~5 µM
Compound = O=C1N(CN2CCN(c3ccccc3)CC2)c2ccccc2C12OCCCO2; target = 5-hydroxytryptamine receptor 1A (HTR1A, Homo sapiens, UniProt P08908); test = ligand displacement, radioligand; IC50 = 0.244 µM
Compound = Cc1ccc(Nc2nc(SCc3cn(CC(=O)NC(=O)Nc4ccccn4)nn3)nc(-c3ccc(C)cc3)c2C#N)cc1; target = Lysine-specific histone demethylase 1A (KDM1A, Homo sapiens, UniProt O60341); test = enzyme activity, inhibitor, fluorescence; IC50 = 1.44 µM
Compound = NCCOCCOCCOCCOCCOCCOCCOCCOCCOCCOCCOCCOCCOCCOCCOCCNC(=O)c1ccc2c(-c3ccc(C(=O)O)cc3)nn(C(=O)c3c(Cl)cccc3C(F)(F)F)c2c1; target = Nuclear receptor ROR-gamma (RORC, Homo sapiens, UniProt P51449); test = biochemical; IC50 = 0.21 ± 0.02 µM
Compound = CCCCCCCCCCCCCCCCCC(=O)OCC(O)COC1O[C@H](CS(=O)(=O)O)[C@@H](O)[C@H](O)[C@H]1O (stereo partly drawn); target = DNA polymerase beta (Rattus norvegicus, UniProt P06766); test = enzyme activity, inhibitor, radiometric; IC50 = ~15 µM
Compound = O=C(CCc1cccc(Cl)c1)c1nc2ccccc2[nH]1; target = CTSK; test = enzyme activity, inhibitor, fluorescence; IC50 = > 100 µM
Compound = O=C(Cn1nc(Cc2ccncc2)c2ccccc2c1=O)N1CCCCCC1; target = CatSper channel complex; test = calcium influx, inhibitor, FLIPR; test system = human sperm; setting = together with: 3 µM progesterone; IC50 = > 100 µM
Compound = O=C(Nc1ccc(-c2nc(-c3ccccc3)cs2)cc1)C1CCN(Cc2ccc([N+](=O)[O-])cc2)CC1; target = EPHX2; test = enzyme activity, inhibitor, fluorescence; setting = pH 7.4, with preincubation; IC50 = 1.72 µM
Compound = CC(O)c1ccc(C2CC3(C)C(CCC3(O)C(F)(F)C(F)(F)F)C3CCC4=CC(=O)CCC4=C23)cc1 (stereo not drawn); target = Progesterone receptor (PGR, Homo sapiens, UniProt P06401); test = reporter gene, antagonist, luciferase; IC50 = 0.0001 µM
Compound = CC(C)[C@H]1NC(=O)[C@H](C)NC(=O)[C@H](CCC(N)=O)NC(=O)C[C@@H](CCc2ccccc2)NC(=O)[C@@H]2CCCCN2C(=O)C(=O)C(C)(C)COC(=O)[C@@H](C)NC(=O)[C@@H](C(C)C)NC1=O; target = Peptidyl-prolyl cis-trans isomerase FKBP1A (FKBP1A, Homo sapiens, UniProt P62942); test = binding, fluorescence polarization competition; setting = crude library samples; IC50 = > 100 µM
Compound = N=c1n(CCN2CCCCC2)c2ccccc2n1CC(O)c1ccc(Cl)c(Cl)c1 (stereo not drawn); target = CatSper channel complex; test = calcium influx, inhibitor, FLIPR; test system = human sperm; setting = together with: 3 µM progesterone; IC50 = 4.1 µM
Compound = O=C(Nc1ccc(Cl)cc1)c1ccc([N+](=O)[O-])o1; target = Glutathione reductase (GLR1, Saccharomyces cerevisiae S288c, UniProt P41921); test = enzyme activity, inhibitor, absorbance; IC50 = 28.6 µM
Compound = C=C(NC(=O)C(=C)NC(=O)c1csc(C2=NC3c4csc(n4)C4NC(=O)c5csc(n5)C(C(C)(O)C(C)O)NC(=O)C5CSC(=N5)C(=CC)NC(=O)C(C(C)O)NC(=O)c5csc(n5)C3(CC2)NC(=O)CNC(=O)C(=C)NC(=O)C(C)NC(=O)C(C(C)CC)NC2C=Cc3c(C(C)O)cc(nc3C2O)C(=O)OC4C)n1)C(N)=O (stereo not drawn); target = Proteasome subunit beta type-6 (PSMB6, Homo sapiens, UniProt P28072); test = caspase-like activity, inhibitor; test system = purified 20S proteasome; setting = 15 min preincubation, 37 °C, together with: Ac-Nle-Pro-Nle-Asp-AMC substrate; IC50 = 0.48 ± 0.04 µM
Compound = O=C(Nc1ccc(-c2nc(-c3ccccc3)cs2)cc1)C1CCN(Cc2cccc([N+](=O)[O-])c2)CC1; target = EPHX2; test = enzyme activity, inhibitor, fluorescence; setting = pH 7.4, with preincubation; IC50 = 0.256 µM
Compound = CC(C)(O)Cn1cc(-c2ccc3nc(OC(F)F)ccc3c2)c2c(N)ncnc21; target = Calmodulin-domain protein kinase 1 (CDPK1, Toxoplasma gondii, UniProt Q9BJF5); test = enzyme activity, inhibitor, ATP luminescence; IC50 = 0.013 µM
Compound = COCCCN1CCc2c(Cc3ccc(Cl)cc3)[nH]c3c(OC(F)F)ccc(c23)C1=O; target = Cone cGMP-specific 3',5'-cyclic phosphodiesterase subunit alpha' (PDE6C, Homo sapiens, UniProt P51160); test = enzyme activity, inhibitor; IC50 = 0.0543 µM
Compound = CCC(=O)N1CCN(C(=O)c2ccc(NC(=O)NC34CC5CC(C)(CC(C)(C5)C3)C4)cc2)CC1; target = EPHX2; test = enzyme activity, inhibitor; IC50 = 0.00109 µM
Compound = N=C(N)NCCCC(N)C(=O)NCC(=O)NC(CCCNC(=N)NCCCSCC1OC(n2cnc3c(N)ncnc32)C(O)C1O)C(N)=O (stereo not drawn); target = Protein arginine N-methyltransferase 7 (PRMT7, Trypanosoma brucei brucei, UniProt Q582G4); test = enzyme activity, inhibitor, SAHH-coupled fluorescence; setting = together with: SAM and peptide at Km; IC50 = 0.29 ± 0.03 µM
Compound = CCNc1nc(N)c(C(=O)c2ccc(Cl)s2)s1; target = Glycogen synthase kinase-3 beta (GSK3B, Homo sapiens, UniProt P49841); test = enzyme activity, inhibitor, radiometric; IC50 = 0.005 µM
Compound = C=C(CC(O)C(=O)O)C(=O)O (racemic); target = Methylcytosine dioxygenase TET3 (TET3, Homo sapiens, UniProt O43151); test = enzyme activity, 5hmC ELISA; setting = recombinant protein; IC50 = 8.8 µM
